Experimental data pooled from the literature.
Protocols differ between the studies behind these lines. ± gives the spread as reported.

Compound = COCCN1CCn2cc(C(=O)NCc3ccc(F)cc3F)c(=O)c(O)c2C1=O; target or system = human immunodeficiency virus 1; test = single-round vector infection; test system = integrase S230N; endpoint = EC50; result = 7.8 ± 0.5 nM
Compound = Nc1ncnc2c1ncn2C1CCC(OC(C(=O)O)P(=O)(O)O)C1 (racemic); target or system = HIV-1 reverse transcriptase F61A; test = enzyme activity, inhibitor; conditions = together with: poly(rU)·oligo(dA), [3H]dATP; how to read = baseline: mutant over wild type; endpoint = fold resistance; result = 3.9 fold
Compound = CC[C@H](C)[C@H](NC(=O)[C@H](CCCCN)NC(=O)[C@H](Cc1c[nH]c2ccccc12)NC(=O)[C@H](CC(C)C)NC(=O)[C@H](CC(C)C)NC(=O)[C@H](CC(=O)O)NC(=O)[C@@H](NC(=O)[C@H](CCCNC(=N)N)NC(=O)[C@H](CCC(=O)O)NC(=O)[C@H](CCCNC(=N)N)NC(=O)[C@H](CC(=O)O)NC(=O)[C@H](CC(C)C)NC(C)=O)[C@@H](C)CC)C(=O)N[C@@H](C)C(=O)N[C@@H](CCCNC(=N)N)C(=O)N[C@@H](C)C(=O)NCC(=O)N[C@@H](C)C(=O)N[C@@H](CCCNC(=N)N)C(=O)N[C@@H](CO)C(=O)N[C@@H](C)C(=O)N[C@H](C(=O)NCC(N)=O)C(C)C; test = amide-selective NMR; test system = POPC/POPG/chol 7:2:1 SUV; conditions = 15 µM, pH 7.5, 25 °C; endpoint = membrane partition coefficient; result = 52000 ± 1000
Compound = Nc1ccn(C2CCC(OC(C(=O)O)P(=O)(O)O)C2)c(=O)n1 (racemic); target or system = HIV-1 reverse transcriptase Q151M; test = enzyme activity, inhibitor; conditions = together with: poly(rI)·oligo(dC), [3H]dCTP; how to read = baseline: mutant over wild type; endpoint = fold resistance; result = 0.4 fold
Compound = Cc1cc(/C=C/C#N)cc(C)c1-n1cnc2cnc(Nc3ccc(C#N)cc3)nc21; target or system = HIV-1; test = viral replication, single-round infection; test system = RT mutant L100I/K103N; endpoint = EC50; result = 39.8 ± 9.2 nM
Compound = CC(C)N1CCn2cc(C(=O)NCc3ccc(F)cc3F)c(=O)c(O)c2C1=O; target or system = HIV-1; test = viral replication, single-round vector infection; test system = IN E138K/Q148K; endpoint = EC50; result = 62.5 ± 8 nM
Compound = CCCCCCCCCCCCCCCC(=O)N[C@@H](CCC(=O)NCCOCCOCCC(=O)NCCOCCOCCC(=O)NCCCC[C@H](NC(=O)[C@H](CC(=O)O)NC(=O)[C@H](CC(C)C)NC(=O)[C@H](Cc1ccc(O)cc1)NC(=O)[C@H](CCCCN)NC(=O)[C@H](CO)NC(=O)[C@H](Cc1ccc(O)cc1)NC(=O)[C@H](CC(=O)O)NC(=O)[C@H](CO)NC(=O)[C@@H](NC(=O)[C@H](Cc1ccccc1)NC(=O)[C@@H](NC(=O)CNC(=O)[C@H](CCC(N)=O)NC(=O)[C@@H](CO)NC(=O)[C@@H](N)Cc1c[nH]cn1)[C@@H](C)O)[C@@H](C)O)C(=O)N[C@@H](CCCNC(=N)N)C(=O)N[C@@H](CCCNC(=N)N)C(=O)N[C@@H](C)C(=O)N[C@@H](CCC(N)=O)C(=O)N[C@@H](CC(=O)O)C(=O)N[C@@H](Cc1ccccc1)C(=O)N[C@H](C(=O)N[C@@H](CCC(N)=O)C(=O)N[C@@H](Cc1c[nH]c2ccccc12)C(=O)N[C@@H](CC(C)C)C(=O)N[C@@H](CC(C)C)C(=O)N[C@@H](CC(N)=O)C(=O)N[C@H](C(=O)NCC(=O)NCC(=O)N1CCC[C@H]1C(=O)N[C@@H](CO)C(=O)N[C@@H](CO)C(=O)NCC(=O)N[C@@H](C)C(=O)N1CCC[C@H]1C(=O)N1CCC[C@H]1C(=O)N1CCC[C@H]1C(=O)N[C@@H](CO)C(N)=O)[C@@H](C)O)C(C)C)C(=O)O; test = Western blot; test system = C57BL/6J mouse CCl4 model, liver; conditions = dose not given; endpoint = α-SMA, TGF-β and p-Smad2/3; result = decreased
Compound = Cc1cc(/C=C/C#N)cc(C)c1Nc1nc(Nc2ccc(C#N)cc2)ncc1N; target or system = HIV-1; test = viral replication, single-round infection; test system = RT mutant V106A/F227L/L234I; endpoint = EC50; result = 0.4 ± 0.1 nM
Compound = O=C(NCc1ccc(F)cc1F)c1cn2c(c(O)c1=O)C(=O)N(CCCCO)CC2; target or system = human immunodeficiency virus 1; test = single-round vector infection; test system = integrase G140S/Q148H; endpoint = EC50; result = 1100 ± 11.2 nM
Compound = CC[C@@H](C)[C@@H](NC(=O)[C@@H](CCCCN)NC(=O)[C@@H](CCCCN)NC(=O)[C@@H](CC(C)C)NC(=O)[C@@H](Cc1c[nH]c2ccccc12)NC(=O)CN)C(=O)NCC(=O)N[C@H](CCCCN)C(=O)N[C@H](CCCCN)C(=O)N[C@@H](C(=O)N[C@H](CCC(=O)O)C(=O)N[C@H](CCCNC(=N)N)C(=O)N[C@@H](C(=O)NCC(=O)N[C@H](CCC(N)=O)C(=O)N[C@H](Cc1c[nH]cn1)C(=O)N[C@@H](C(=O)N[C@H](CCCNC(=N)N)C(=O)N[C@H](CC(=O)O)C(=O)N[C@H](C)C(=O)N[C@@H](C(=O)N[C@@H](C(=O)N[C@H](CCC(N)=O)C(=O)N[C@@H](C(=O)N[C@@H](C(=O)NCC(=O)N[C@@H](C(=O)N[C@H](C)C(=O)N[C@H](CCC(N)=O)C(=O)N[C@H](CCC(N)=O)C(=O)N[C@H](C)C(=O)N[C@H](C)C(=O)N[C@H](CC(N)=O)C(=O)N[C@@H](C(=O)N[C@H](C)C(=O)N[C@H](C)C(=O)N[C@@H](C(=O)N[C@H](CC(C)C)C(=O)N[C@H](CCCCN)C(N)=O)[C@H](C)O)C(C)C)C(C)C)[C@H](C)CC)[C@H](C)O)[C@H](C)CC)[C@H](C)O)[C@H](C)O)C(C)C)[C@H](C)CC; target or system = Klebsiella pneumoniae; test system = isolate RKI 19/16, CAMHB; endpoint = MIC; result = > 1020 µg/mL
Compound = O=C(NC1CCN(c2ncnc3[nH]cnc23)CC1)c1cccc(NS(=O)(=O)c2ccc(C(F)(F)F)cc2)c1; target or system = monkeypox virus E1/E12; conditions = 3.125 µM; endpoint = inhibition; result = 9.78%
Compound = C=C(C)C[C@H](OC)[C@H](O)C(=O)N[C@@H](OC)[C@@H]1CC(=O)C(C)(C)[C@@H](C[C@H](O)[C@@H](C)[C@H]2Cc3c(C)c(O)cc(O)c3C(=O)O2)O1; target or system = H522-T1; test = cell growth or viability; endpoint = IC50; result = 0.8 nM
Compound = CC(C)CC(C)n1ccn2cc(C(=O)NCc3ccc(F)cc3F)c(=O)c(O)c2c1=O (stereo not shown); target or system = human immunodeficiency virus 1; test = single-round vector infection; test system = integrase N155H; endpoint = EC50; result = 12.6 ± 1.2 nM
Compound = Nc1c(C(=O)NCc2ccc(F)cc2F)c(=O)n(O)c2ncccc12; target or system = HIV-1 vector with IN H51Y; test = single-round infectivity; endpoint = EC50; result = 1 ± 0.6 nM
Compound = CN1CCn2cc(C(=O)NCc3ccc(F)cc3F)c(=O)c(O)c2C1=O; target or system = human immunodeficiency virus 1; test = single-round vector infection; test system = integrase G118R; endpoint = EC50; result = 19.7 ± 1.8 nM
Compound = CC[C@H](C)[C@H](NC(=O)CNC(=O)[C@@H](NC(=O)[C@H](CCCNC(=N)N)NC(=O)[C@H](CO)NC(=O)[C@H](Cc1c[nH]cn1)NC(=O)[C@H](CCCNC(=N)N)NC(=O)[C@H](CS)NC(=O)CNC(=O)[C@@H](NC(=O)[C@H](CCCNC(=N)N)NC(=O)[C@H](Cc1ccccc1)NC(=O)[C@H](Cc1c[nH]cn1)NC(=O)[C@@H](NC(=O)[C@H](Cc1ccccc1)NC(=O)[C@H](CC(C)C)NC(=O)[C@H](CC(C)C)NC(=O)[C@H](CCC(N)=O)NC(=O)[C@H](CCC(N)=O)NC(=O)[C@H](CC(C)C)NC(=O)[C@@H](NC(=O)[C@H](CCCNC(=N)N)NC(=O)[C@@H](NC(=O)[C@H](CC(C)C)NC(=O)[C@H](C)NC(=O)[C@H](CCC(=O)O)NC(=O)[C@@H](NC(=O)CNC(=O)[C@@H](NC(=O)[C@H](Cc1c[nH]c2ccccc12)NC(=O)[C@@H](NC(=O)[C@@H](N)CC(=O)O)[C@@H](C)O)[C@@H](C)O)C(C)C)[C@@H](C)CC)[C@@H](C)CC)[C@@H](C)CC)[C@@H](C)CC)[C@@H](C)CC)C(=O)N[C@H](C(=O)N[C@@H](CCC(N)=O)C(=O)N[C@@H](CCC(N)=O)C(=O)N[C@@H](CCCNC(=N)N)C(=O)N[C@@H](CCCNC(=N)N)C(=O)N[C@H](C(=O)N[C@@H](CCCNC(=N)N)C(=O)N[C@@H](CC(N)=O)C(=O)NCC(=O)N[C@@H](C)C(=O)N[C@@H](CO)C(=O)N[C@@H](CCCCN)C(=O)N[C@@H](CO)C(=O)O)[C@@H](C)O)[C@@H](C)CC; test = JC-1 flow cytometry; test system = purified mouse mitochondria; conditions = 1 µM, 15 min; endpoint = low membrane potential mitochondria; result = 73%

Repeated from above:
Compound = Cc1cc(/C=C/C#N)cc(C)c1Nc1nc(Nc2ccc(C#N)cc2)ncc1N; target or system = HIV-1; test = viral replication, single-round infection; test system = RT mutant V106A/F227L/L234I; endpoint = EC50; result = 0.4 ± 0.1 nM
